Results from different studies.
Numbered parts are unrelated; each lists some results of a single study.

Sample 1
Target: RNA binding protein fox-1 homolog 2, RRM domain, GST-SBP tag (RBFOX2, Homo sapiens, UniProt O43251-10, residues 100-194)
Technique: RNA Bind-n-Seq
Form: RNA
Matrix: in vitro
Tested at: 365 nM
Setting: natural RNA segment, single round, ends assumed
Baseline: no-protein control
Direction: higher = stronger binding
All sequences stand within: GGGAGUUCUACAGUCCGACGAUC … UGGAAUUCUCGGGUGCCAA
Target sequence (chain): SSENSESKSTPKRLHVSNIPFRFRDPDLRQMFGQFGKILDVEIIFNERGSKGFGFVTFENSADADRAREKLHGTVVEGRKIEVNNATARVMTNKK
| Oligonucleotide | RBNS enrichment (R) |
| --- | --- |
| AUGAUGUGAUUUUGGGGGGUUUCAGGUACCUAAGCAUGAUUUUUAAAAUCACUUCUCUCUUUACAUAUUUCGAACAUAUGUUUGCUUUCUACACUUUGCAGAUUUUAUUU | 7.01 |
| AGACAAAACCUUUAUUCCAUGUGCUUUGCUUCAUUCUGUACAUAGCUCUUUGGCUCGUGAACCUAAUUGUAAACUUUCAGGUAUUUUUGUACAAAUAAGGGACUGAUGUU | 0.349 |
| UGCUGAGAUUUUAUGAUUCCAGGUUCAGGGGUGAGAAGGAUUCUGGUACCUGAUACCUGUUGGAGAUUAUGUGACUGCUGGCAUGUCUUAGAUAUCUUAGUUAUCUUUUG | 1.26 |
| CUCCCUCUGCAGCGCUCGUCUGCCCGCUCGCCUGGGCUGCUCCUGCACUCGUGCUGGGCAUCCUGCCGAAGUGGCCACACUGCCACACUGCUCUGGCUCACGAGUAUUGG | 0.383 |
| CAGCACUGUGCCUGCCAGAGUUCCCACAGCACCCGAGGGAGAAGGUGAUGGCUGUCUCUCUCUAGUAAUGUCCUUGUUCUUAUUCUUCCCUCCUACAGCUGGCCUAACCA | 2.01 |
| ACUGGUCAAUUCAGCAUAUGGAAGUAUAAAUGCAGUCUUUUUACUAGGCAGAUAUAUAUGCUAUCUUACAGCUAAUUAUGAAAUUGAAUGAAAAUCCAUUGUUAUCUUAG | 0.443 |
| GAGGCAUUUAAUACAAAACCAGGAACUCCGAAUCCAUUGCUCUUUCCUCCUUUGCUUUCACUUCUUAAGUAUAUGUGUUCUGAAGUUGAGAUGGGAGAGAUUUGAAUAUA | 0.837 |
| ACUUUUUAAAUCAUGUUCCCCCUAAACAUGGCUGUUAACCCACUGCAUGCAGAAACUUGGAUGUCACUGCCUGACAUUCACUUCCAGAGAGGACCUAUCCCAAAUGUGGA | 23.6 |
| ACUGAUUUUUGUAGUUUUGGUAUUUAAAGCAAAAACAAACAAAAAACAAACCCCUUUUUGGUACCUGCACUGCAUCCCUCGGGUGGGGCAGUGCCUACUUUGGAAGAUGC | 0.264 |
| CUGAGGAGUUCGAGCAGGGCAGUCAGAUUUUUAAAGUUUUGUACAGUUUUCCUUUGUAUUCACUUCCAUUUUUACUUAAUAACUGACUUGUUGGUGGCUCUUAUUUCUGA | 0.8 |
| CCCUCCACGCGCUGAUCGAUACUCUGCCUGUGUCCACUCAACUCAGAUUACAAACAGCUCUCUCUGCUGUCUGUGUCCCUUGUGAUACACUUAAACACACUGUCCAAAGA | 0.347 |
| AAUUUCAAUUGCCUCGAUAAGUUUCCAAGUCACUGAAAUCUGCUGAAGGUUUUACUGUAUUGUUGCACAACUUUAAGAUAAUUUUUGUCUCAAUGUCAACUUUUUUCACU | 0.391 |

Sample 2
Target: Probable WRKY transcription factor 11, DNA-binding domain (WRKY11, Arabidopsis thaliana, UniProt Q9SV15, residues 228-325)
Technique: DNA-protein interaction ELISA
Form: double-stranded DNA, one strand shown
Matrix: in vitro, bacterial lysate
Tested at: not given
Setting: whole dsDNA probe, crude lysate protein
Baseline: highest signal in screen
Direction: higher = stronger binding
Target sequence (chain): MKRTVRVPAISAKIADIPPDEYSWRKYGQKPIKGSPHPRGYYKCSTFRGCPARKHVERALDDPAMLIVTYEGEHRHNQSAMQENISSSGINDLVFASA
| Oligonucleotide | relative absorbance |
| --- | --- |
| AAAAAAGCTAGTGCTGCCACCAACGTAAAA | 13 % of maximum |
| AAAAAAGATCTAGGCCTTGGGACTCAAAAA | 10.7 % of maximum |
| AAAAAAACCTCTTTATTCTCGATTGTAAAA | 15.8 % of maximum |
| AAAAAATGCCGAGACCCCATGCCGGCAAAA | 12.7 % of maximum |
| AAAAAACGCTTTCAGTTTTGATCTTAAAAA | 12.7 % of maximum |
| AAAAAAGCCGTGGGTGATGGTCACAGAAAA | 13.8 % of maximum |
| AAAAAATCTTCTTGTTTCTTATTTCTAAAA | 15.6 % of maximum |
| AAAAAAGCTAGTCGATTCGGCTTAGAAAAA | 16.1 % of maximum |
| AAAAAACTACCTCTACTCTAGCCTTAAAAA | 13.8 % of maximum |
| AAAAAATTGCACCTGATACTAGGGTTAAAA | 15.8 % of maximum |
| AAAAAATCCCCCCGTTTCACTCTTGCAAAA | 16.1 % of maximum |
| AAAAAAGCGTAAGCCTTGACAGTCGTAAAA | 18.7 % of maximum |
| AAAAAACCTTCCCCCTCTTCTGCCTTAAAA | 18.4 % of maximum |

Sample 3
Target: Histone acetyltransferase KAT6A, winged helix 1, GST fusion (KAT6A, Homo sapiens, UniProt Q92794, residues 1-85)
Technique: protein binding microarray
Form: double-stranded DNA, one strand shown
Matrix: in vitro
Tested at: not given
Setting: 8-mer, flanks averaged, mean of 2 arrays, mostly near background
Baseline: not given
Direction: higher = stronger binding
Target sequence (chain): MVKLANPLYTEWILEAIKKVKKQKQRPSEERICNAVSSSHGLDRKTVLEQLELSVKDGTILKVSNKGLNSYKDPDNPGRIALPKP
| Oligonucleotide | E-score |
| --- | --- |
| CGGTTTTC | 0.144 |
| CACAATCG | 0.0897 |
| GGATGTAA | 0.0318 |
| ATATTACC | 0.0365 |
| AATCCGCA | 0.175 |
| CGTATCAA | 0.0763 |
| GAATCCCC | 0.0198 |
| AGTCGGGG | 0.112 |
| ATTAAGTG | -0.159 |
| ATTATCCG | 0.198 |
| AACGTTCA | -0.074 |
| CGTAGACA | 0.0601 |
| AGAGGCTG | -0.313 |
| ATTGCGTA | 0.162 |
| GGATAACA | -0.115 |
| AGGTGAAC | -0.116 |
| AATCCCGT | 0.329 |
| AATTGTCA | -0.126 |
| AAAACATA | -0.085 |
| AATGGCCT | -0.0148 |
| CTGGCTGA | -0.227 |
| TCGTAAGA | 0.00929 |
| GGCACTAA | -0.0577 |

Sample 4
Target: Prothrombin, mature alpha-thrombin (F2, Homo sapiens, UniProt P00734)
Technique: aptamer microarray, sandwich
Form: DNA with 2'F-ANA
Matrix: in vitro
Tested at: 200 nM
Setting: whole 15-mer aptamer, many near background
With: Cy3 exosite-II aptamer, 400 nM
Direction: higher = stronger binding
Oligonucleotide: GGTTGGTGTGGTTGG
| Modification | mean fluorescence intensity [a.u.] |
| --- | --- |
| 2'F-ANA at 4 8 11 12 15 | 496 |
| 2'F-ANA at 5 6 8 13 | 56.7 |
| 2'F-ANA at 1 4 5 6 7 10 11 13 14 | 50.9 |
| 2'F-ANA at 4 8 9 10 11 12 | 239 |
| 2'F-ANA at 1 2 3 7 8 12 13 14 15 | 115 |
| 2'F-ANA at 2 3 4 5 11 12 | 166 |
| 2'F-ANA at 1 2 3 4 5 8 9 13 15 | 52 |
| 2'F-ANA at 1 7 9 11 12 13 14 15 | 65.7 |
| 2'F-ANA at 1 4 6 8 10 11 12 14 | 44 |
| 2'F-ANA at 2 6 12 13 | 525 |
| 2'F-ANA at 3 6 7 12 | 1280 |
| 2'F-ANA at 2 3 5 8 9 10 11 12 13 14 | 49.8 |
| 2'F-ANA at 2 4 6 | 301 |
| 2'F-ANA at 1 6 9 10 11 14 15 | 46.3 |
| 2'F-ANA at 3 6 9 12 13 15 | 954 |
| 2'F-ANA at 1 2 5 8 9 12 15 | 114 |
| 2'F-ANA at 1 2 3 5 6 7 8 9 10 13 14 | 49.5 |
| 2'F-ANA at 1 2 3 6 8 11 12 13 15 | 323 |
| 2'F-ANA at 1 3 4 5 6 7 8 9 12 14 | 48.9 |
